Measurements collected from several papers.
Every numbered part comes from another study and shows a few of its results, in no order.

Set 1
Target: Histone acetyltransferase KAT6A, winged helix 1, GST fusion (KAT6A, Homo sapiens, UniProt Q92794, residues 1-85)
Method: protein binding microarray
Form: double-stranded DNA, one strand shown
Sample: in vitro
Tested at: not given
Notes: 8-mer, flanks averaged, mean of 2 arrays, mostly near background
Reference: not given
Reading: higher = stronger binding
Residues (chain): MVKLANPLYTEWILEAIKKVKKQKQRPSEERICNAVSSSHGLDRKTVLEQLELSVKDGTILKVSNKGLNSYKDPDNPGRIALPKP
| Strand | E-score |
| --- | --- |
| GAATGATA | -0.112 |
| ATATTGTA | 0.0192 |
| GCGCAAGC | 0.391 |
| AATTGTGC | -0.127 |
| TGGCCACA | -0.251 |
| GGGTTTCA | 0.15 |
| AGCTCGTG | -0.118 |
| TGAGTACA | -0.0915 |
| AAAAAAGT | -0.0868 |
| CATAAACC | -0.014 |
| CGGCGCTA | 0.427 |
| CACCATTA | -0.113 |
| ACGTCGAT | -0.0606 |
| CAAACGGG | 0.269 |
| CAGGTGGC | -0.219 |
| ATGAACTG | -0.209 |
| CCATTAGG | -0.0325 |
| AGAAGGCA | -0.123 |
| AAGCTAAG | -0.123 |
| GCCAACTA | -0.12 |
| ATATTGCA | -0.2 |
| AACGAGAC | 0.0866 |
| GAGTAGCC | -0.0573 |
| ATAGAGTG | -0.09 |
| AGTAGCGA | -0.0465 |

Set 2
Target: Sal-like protein 4, full length isoform A (SALL4, Homo sapiens, UniProt Q9UJQ4, residues 1-1053)
Sequence of UniProt Q9UJQ4 (whole entry, looked up): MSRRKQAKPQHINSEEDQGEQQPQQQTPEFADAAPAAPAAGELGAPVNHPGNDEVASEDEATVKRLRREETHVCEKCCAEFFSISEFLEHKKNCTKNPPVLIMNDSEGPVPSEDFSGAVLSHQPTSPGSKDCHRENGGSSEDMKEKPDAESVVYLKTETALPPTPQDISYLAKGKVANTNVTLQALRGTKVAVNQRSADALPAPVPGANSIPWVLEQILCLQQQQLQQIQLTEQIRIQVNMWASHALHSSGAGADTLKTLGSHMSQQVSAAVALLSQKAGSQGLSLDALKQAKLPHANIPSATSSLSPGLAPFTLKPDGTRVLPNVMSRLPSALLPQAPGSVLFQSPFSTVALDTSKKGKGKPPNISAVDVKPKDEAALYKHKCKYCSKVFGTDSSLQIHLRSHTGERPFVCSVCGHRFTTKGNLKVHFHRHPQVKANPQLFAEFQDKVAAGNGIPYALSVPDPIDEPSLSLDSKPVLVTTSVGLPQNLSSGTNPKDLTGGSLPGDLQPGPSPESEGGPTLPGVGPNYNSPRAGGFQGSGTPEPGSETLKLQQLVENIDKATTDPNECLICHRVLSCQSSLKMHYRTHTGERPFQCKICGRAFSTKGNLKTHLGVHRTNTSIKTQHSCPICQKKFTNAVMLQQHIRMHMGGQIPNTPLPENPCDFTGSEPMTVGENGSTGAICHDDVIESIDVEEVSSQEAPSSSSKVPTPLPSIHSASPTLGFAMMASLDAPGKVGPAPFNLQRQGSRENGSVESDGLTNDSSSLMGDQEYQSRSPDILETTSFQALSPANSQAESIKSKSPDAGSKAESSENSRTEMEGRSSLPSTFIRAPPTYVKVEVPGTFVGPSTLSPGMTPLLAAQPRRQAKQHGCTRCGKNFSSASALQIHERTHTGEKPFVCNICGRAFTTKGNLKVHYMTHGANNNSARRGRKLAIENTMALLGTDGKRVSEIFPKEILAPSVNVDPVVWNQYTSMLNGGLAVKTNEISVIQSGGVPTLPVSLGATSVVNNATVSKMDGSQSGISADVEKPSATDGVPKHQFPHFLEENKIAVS
Method: universal PBM
Form: double-stranded DNA, one strand shown
Sample: in vitro
Tested at: 600 nM
Notes: 8-mer, flanks averaged, mean of replicates
Reading: higher = stronger binding
| Strand | E-score |
| --- | --- |
| GATGGAAC | -0.0456 |
| ATCAAAAC | 0.217 |
| TCTGAACA | 0.0943 |
| CCGGCTAG | -0.353 |
| TCGGTCAA | 0.0289 |
| CAAATGGC | -0.0838 |
| CACCGAAA | -0.0295 |
| GTATGCGA | 0.0665 |
| AAACTCCC | -0.0631 |
| CGGGCTAG | -0.273 |
| CGACGGTC | -0.338 |
| GTAGTAAA | 0.295 |
| AACCGAAT | 0.122 |
| GATTTAGC | -0.00856 |
| AGACTGTG | 0.00239 |
| CTGAAAGA | 0.153 |

Set 3
Target: RNA binding protein fox-1 homolog 2, RRM domain, GST-SBP tag (RBFOX2, Homo sapiens, UniProt O43251-10, residues 100-194)
Method: RNA Bind-n-Seq
Form: RNA
Sample: in vitro
Tested at: 365 nM
Notes: natural RNA segment, single round, ends assumed
Reference: no-protein control
Reading: higher = stronger binding
| Strand | RBNS enrichment (R) |
| --- | --- |
| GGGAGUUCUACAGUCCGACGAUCUGCUGUCAGUGUGAUGUGCUUUCUGCAUGGUUAUAUACUACUAGUGAUUUUAUCAAAACUUCUAAAAUUUAAAUUACGUGGUAAAAGAUCUGUAAAAGGCUGCAUAAAUGUGGAAUUCUCGGGUGCCAA | 0.46 |
| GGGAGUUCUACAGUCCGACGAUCUUGCCCAGCUCAGCAUCAGCUAACCACAACCCUGGAAGAGGCGGCCUAAGGAGAUUCCACACAUGCGUAUCUCUGUUGCUUCUAUUGGCCUAAACCCACUACUGCCAAAGUGGAAUUCUCGGGUGCCAA | 0.811 |
| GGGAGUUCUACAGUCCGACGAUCGUAAUUCAGAUUUGUCAUUUGGAGGAAAAUCAACAUAAUCUGAAUAUAAAGCAGGCAGCAUUGAGAACUUCUACGUAUGUGAACAUCAUUGACUUCGUCGAGCAGUGAUUUGGAAUUCUCGGGUGCCAA | 8.58 |
| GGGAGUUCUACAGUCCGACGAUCAAAAAGACAUUCCAGAGCAUAGCCUUUUGGUAACUUUCUAGGUAAUCUUGCAAUCUCUCCAUACUGGCUCCAUGUUGAAAUUGCUUUUUCCCUCAGGACCCUGGGUAAGAUGGAAUUCUCGGGUGCCAA | 0.469 |
| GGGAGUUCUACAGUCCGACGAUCCAUCUUCAGCAUCAUUGCAUUAAAGUGGUGUAAUCUCCUUCUCUACAUCUGUUGUCAGAGCCACUGAGUGCUGUGCUGCUCGACGUGAGGGUGAAAUGAUUGACUUGUGAUGGAAUUCUCGGGUGCCAA | 0.569 |
| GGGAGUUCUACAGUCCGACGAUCCUGACUAUUGAUAUACGCCCCCAAACUUAAGGUGUUCAUGUUAGAUUUUAAUUAGCUGUGAGAUUUAUGCACAAAGUGAAUAUUUAGCUGAUAGAAAUUAUGAUUUUGUUUGGAAUUCUCGGGUGCCAA | 0.73 |
| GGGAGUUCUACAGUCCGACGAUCCAUAGUGACAUCACCUGUGGAUAUUUAAUGAGUGUGGGAUGCGGGGUCUGCGGUAGAGAUGGUUUCUGGCAGCCGCAGCAGCCCCAGGUACCUAGCCUCCCCUGGCUGCUUGGAAUUCUCGGGUGCCAA | 0.374 |
| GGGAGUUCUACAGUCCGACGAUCACACACCAAUCAAAACCUUAUUGGUCUGGAAGUUGGGAUUCCGUUUUUGGUAGAUCGUGGUAGAUCUGGUACUCCUAACUCCCUGGUCCUCAGGCGGCUCCUCUGUAAAAUGGAAUUCUCGGGUGCCAA | 0.684 |
| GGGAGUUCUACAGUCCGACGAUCCUCAUGUUUCACAGCGUUCCUGUUUUUUCUCUCCCGCCACCCCCACCGGCAUUUCCUUCUUCCACCAGCUUUAAUGGAACUUUUUUUGGCACUGCUUUGCAUUGGAGUCAUGGAAUUCUCGGGUGCCAA | 3.35 |
| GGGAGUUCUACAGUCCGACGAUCGCCCCACGGCUGAAGCUGCAUCUGAUGAAACUGAUGGGUACUGCUUGUCCCUCAGCUCACACUUGGCGGUGGCCUCUCGAUCACUCUGGGUCUUGGGAGCUCUUGCCUUCUGGAAUUCUCGGGUGCCAA | 1.51 |
| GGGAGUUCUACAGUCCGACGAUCUAAUGAAAACUACCAUUAGCCAGUCUUUCUUACUGACAAUAAAUUAUUAAUAAAAUACUUGAGCUUUUGCCUCUUUUUCCUUCCCAUUGAUACUCCUGUUCAGGAUUCAGUGGAAUUCUCGGGUGCCAA | 0.431 |
| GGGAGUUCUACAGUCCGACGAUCAUGAAAACGCCCAAAAUAAUUAGUAGGAGUUCAUCUUUAAAGGGGAUAUUCAUUUGAUUAUACGGGGGAGGGUCAGGGAAGAACGAACCUUGACGUUGCAGUGCAGUUUCUGGAAUUCUCGGGUGCCAA | 0.786 |

Set 4
Target: RING finger protein unkempt homolog, zinc fingers 1-6, GST-SBP tag (UNK, Homo sapiens, UniProt Q9C0B0, residues 30-357)
Method: RNA Bind-n-Seq
Form: RNA
Sample: in vitro
Tested at: not given
Notes: RNA with constant flanks, human and mouse sites, ends assumed
Reference: input RNA pool
Reading: higher = stronger binding
Residues (chain): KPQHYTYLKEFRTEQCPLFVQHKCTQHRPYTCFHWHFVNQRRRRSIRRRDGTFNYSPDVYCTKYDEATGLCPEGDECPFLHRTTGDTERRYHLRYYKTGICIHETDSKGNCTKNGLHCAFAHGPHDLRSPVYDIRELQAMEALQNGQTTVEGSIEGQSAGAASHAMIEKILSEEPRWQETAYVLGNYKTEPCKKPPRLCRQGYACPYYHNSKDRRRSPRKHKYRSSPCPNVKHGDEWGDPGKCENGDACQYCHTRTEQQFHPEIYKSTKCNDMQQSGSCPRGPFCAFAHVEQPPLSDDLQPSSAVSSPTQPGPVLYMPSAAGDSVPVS
| Strand | bound/input enrichment |
| --- | --- |
| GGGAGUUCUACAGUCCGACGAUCCCCAUCAAGAUCGGCCGCUCGGUGGCACGCUGUCGACCAGCGCAGAAUAAUGCCACCUUUGAUUGCAAAGUGCUGUCAAGGAACCAUGCCCUCGUCUGGUUUGAUCACAAGACGAGCAAGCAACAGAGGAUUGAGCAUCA | 0.107 ratio |
| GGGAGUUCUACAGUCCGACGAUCGAACCUGAAGUUGAAUAUGAGACAUUAAAAGACACCUCAGAGAAGCUCAAACAGCUUGAGAUGGAGAACAGUCCUUUGCUGUCCCCUCGAUCCAACAUCGAUGUUAACAUAAACAGCCAGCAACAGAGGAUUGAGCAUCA | 0.204 ratio |
| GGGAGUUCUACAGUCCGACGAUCGCUUUGCAAGGGUAGCUGGGGUGAAUUUGCACCAAGGCAGCAGCAUAGUCGCCGCAGUUCCAUCUUCGUCUCCGCGAUGUUGCCCUUAGCCAAAAACGCACUAAGCCGUCUCCAAGUUCGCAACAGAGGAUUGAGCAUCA | 0.0868 ratio |
| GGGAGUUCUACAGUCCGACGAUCAUUGCAUUUGUAGAAUUUGAGAAUGAUGGUCAGGCUGGAGCUGCCAGAGAUGCUCUGCAGGGGUUUAAGAUUACACCGUCCCAUGCCAUGAAGAUCACCUAUGCCAAGAAGUAACAUGUGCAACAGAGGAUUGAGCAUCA | 0.119 ratio |
| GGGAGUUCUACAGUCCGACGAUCAGGCUCGAGGGCGGUGAGCAGUGACAAUUGCUAGGCGGAGACAGUGCAGGGAAGAGAGACCUUAGAAAGGAUCAGGACUGGCGGGAGGUAUUUAACUGAAAGGAAUAUCUGCUUCACUGUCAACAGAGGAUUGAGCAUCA | 0.318 ratio |
| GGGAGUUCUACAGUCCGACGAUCGAGCCGGCCGAGCUCAUCCGACGAGCGCACGAGUUCAAAAGCCAAGGGGCGCAGUGCUACAAGGACAAGAAAUUCCGUGAAGCCAUAGGCAAAUACCACCGGGCGUUGCUGGAGCUGAAGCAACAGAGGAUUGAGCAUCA | 0.168 ratio |
| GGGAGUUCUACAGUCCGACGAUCCGAUUCUACAUAGCAGAACUUACCUGUGCAGUUGAAAGUGUUCAUAAAAUGGGUUUUAUUCAUAGAGAUAUUAAACCUGAUAACAUUUUGAUUGACCGUGAUGGCCAUAUUAAAUUGACUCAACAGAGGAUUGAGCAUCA | 0.514 ratio |
| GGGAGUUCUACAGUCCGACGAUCCAUUCUCUGCAUUUUAAUGAGAAUAUUGCAGCAGUCAUGAAGAAGGGCUUUAAUCUAGAAGAACUAGAAAAGAAUAAUGCACACAGCAUACAAGUCCUCAAGGGCCCUCAUUUAACUAAUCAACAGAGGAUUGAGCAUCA | 0.604 ratio |
| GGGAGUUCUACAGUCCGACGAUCGCUUCUUGUAGUACAAACAUCAAUAAUCAGGAAAGUCAGGAACUUUCUGAAUCCCUGAAAGAUAGUGCCACCAGCAAAACUUUUGAAAAGAAUGUUGUACGGCAGAAUAAAGAAAGCAUACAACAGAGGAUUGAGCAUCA | 0.35 ratio |
| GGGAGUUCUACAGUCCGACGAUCAGGUUUCAAAGUGCAGCCAUCGGUGCCCUUCAGGAGGCUAGCGAAGCAUACCUGGUGGGGUUGUUUGAAGAUACCAAUCUGUGUGCCAUCCACGCCAAGAGAGUCACCAUCAUGCCCAAACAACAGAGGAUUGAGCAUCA | 0.137 ratio |
| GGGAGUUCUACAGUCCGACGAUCAGAGGUGCAAAGAAGACUGCAGAAAUGAACGAAAAGCUCUCCAAGAUGGGUGAAAGUUCACUUAGAAACUUUACGAUGGACACAGAGUCCAGUGUUUAUAACUUUGAAGGAGAAGACUAUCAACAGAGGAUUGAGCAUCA | 0.392 ratio |

Some of these lines once more (set 1):
| Strand | E-score |
| --- | --- |
| AAAAAAGT | -0.0868 |
| CATAAACC | -0.014 |
| CGGCGCTA | 0.427 |
| CACCATTA | -0.113 |
| ACGTCGAT | -0.0606 |
| CAAACGGG | 0.269 |
| CAGGTGGC | -0.219 |
| ATGAACTG | -0.209 |
| CCATTAGG | -0.0325 |
| AGAAGGCA | -0.123 |
| AAGCTAAG | -0.123 |
